Published values pooled from the literature.
Parts stem from different laboratories: compare values within a part only. Positions count from the first letter of the parent shown.

Sample 1
Target: ABI1, truncated, D143A, DHFR fusion (Arabidopsis thaliana)
Method: DHFR PCA, deep sequencing
Matrix: yeast
Setting: methotrexate growth selection, single substitutions
With: (+)-ABA 0.39 µM
Baseline: wild-type fitted maximum
Direction: higher = stronger binding
Measurement: relative binding score
Starting sequence: PYL1, truncated, DHFR fusion (Arabidopsis thaliana); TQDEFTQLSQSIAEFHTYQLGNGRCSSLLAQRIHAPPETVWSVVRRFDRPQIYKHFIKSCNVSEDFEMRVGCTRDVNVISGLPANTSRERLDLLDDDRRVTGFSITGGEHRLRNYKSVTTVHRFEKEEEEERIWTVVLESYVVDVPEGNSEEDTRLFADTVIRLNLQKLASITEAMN
I57P: -15.3%
I105D: -11.3%
Y115A: -8.28%
E109Y: -4.06%
A84V: 23.6%
E128C: 49.5%
E128V: 20.7%
E125M: 45%
V118D: 7.45%
N165Y: 1.01%

Sample 2
Target: RNA binding protein fox-1 homolog 2, RRM domain, GST-SBP tag (RBFOX2, Homo sapiens, UniProt O43251-10, residues 100-194)
Method: RNA Bind-n-Seq
Molecule type: RNA
Matrix: in vitro
Concentration: 365 nM
Setting: natural RNA segment, single round, ends assumed
Baseline: no-protein control
Direction: higher = stronger binding
Measurement: RBNS enrichment (R)
All sequences stand within: GGGAGUUCUACAGUCCGACGAUC … UGGAAUUCUCGGGUGCCAA
Construct (chain): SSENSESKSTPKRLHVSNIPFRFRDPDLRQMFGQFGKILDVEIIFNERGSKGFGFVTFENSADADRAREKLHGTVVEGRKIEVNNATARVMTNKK
CUCUAAAGUUAUAGAAAGAAUGAUGGUGGUAGUGGAGAGUAAGCCUCUUUGGGACCCUGCUUAGAGUCAAGGGUACCAAUGAGAAGGGCUAGGACAAGGAAUGCUUCUUG: 2.32
CCACCAUUCAAGAGAUGACUGAGAAGGAGAUGGUAAGUUCAAGAAGACUGAUUGCACCUGGGACCCAGGCCCUUUCUUUGGGAUCCAGUCCCAGCCUUCAUCCAUGUGAU: 0.536
UUUGUGGAUGUGCAGAACUGCAUGAGCCGUGAGCAGAGCCACCGAGGCCCCCUGCAGGAGGUCCGCUGCAGAUGGCACUGCCCUUCCUUCAGGUCAGGUGGCCCACCACC: 4.19
GUCCCCCAGUCAGUUCCUUUAACAGACCUGAGCUUCUAUGAUGCCAAGGGCGUUCACUGCGACCUGGGAGUAAACAGGGUGUCGCUGCCCUGUGAGAGGAAGAUGGGGCC: 0.251
ACCUGCAGCCACCUUGGUUUUGCCUUGGAGAACAUUUGGGGAGCAUUUCCUGAACCCAUGUCUUUUGGGGGUACAGCUUGUCAUCCAGCAGGAAUUAUUGAGCGAGCAGG: 0.483
UAUGUGGUUCGUGGCCUUCUUCUCACCCAUUGGGAAAACCAAACAGCCUCACACUCUGUCCCCAUCGCUCAUUGGCUUAACUCAAGUGAGACCCCAACUGGGCCUUUGCG: 0.368
AAAAAGAGACUGCCUACAAAUUGUUCCUCUAGAUCAUCGGGGCAGAGGUGCUGUCUAUAAAGCCCCCCCGGGGGCUAACCUUUGCUCAGAUUCUUAAAAAGCAGUGGUUA: 0.32
CCGUUGAAGGACUUGCAUCCCCAUUGCGGGCAGUGCUGGACGUGUCCCGGAGACCCACCGGGAGGGCGCCGCCAUGCCUUGUACCCCCACCGUGCAGGUUGUGGCCGGUU: 0.766
AAUGAGUCAGACCUGUACUACUGAUUAUUAAGCAGGACAGACUGAGCUUUCUGCAAAUAGCUUGAAGGAGGAAACAAUUUCUGAACACACAAGUAGCACCGUGUCGCCUC: 0.428
GCAGAUCCUCUCCUCAGUCCGUGAAUCAGCACAGCUUGGAUUGAGCUUUACAACUAACAGCGCGCUAGAUGGCAGUUAAUUCGCAGUUAAAGAUAAUGCUUUUUAUUUAC: 0.472
CUGCUGACCUCAGGGUCACAGUUGAGUCAUUUGCCAGUUGACGGAGCAAGUUUGACCUUGGUUCUGUUGCUGAAGCAAAUUUGGAACUUUUCUGUCUCAGUGUGAUCCAC: 0.209
CUUGCUCUGAUGCUUGCCUCUGGGCCUCUCCAUGCCCAAGGUGGUCUUUCAUCCUUGACAGGCUGGUAAUGUGCUGGCCACCUCCAGCUCCUGCAUCGAGUCUGUAAACC: 0.33

Sample 3
Target: Histone acetyltransferase KAT6A, both winged helices, GST fusion (KAT6A, Homo sapiens, UniProt Q92794, residues 1-181)
Method: protein binding microarray
Molecule type: double-stranded DNA, one strand shown
Matrix: in vitro
Concentration: not given
Setting: 8-mer, flanks averaged, mean of 2 arrays, mostly near background
Baseline: not given
Direction: higher = stronger binding
Measurement: E-score
Target sequence (chain): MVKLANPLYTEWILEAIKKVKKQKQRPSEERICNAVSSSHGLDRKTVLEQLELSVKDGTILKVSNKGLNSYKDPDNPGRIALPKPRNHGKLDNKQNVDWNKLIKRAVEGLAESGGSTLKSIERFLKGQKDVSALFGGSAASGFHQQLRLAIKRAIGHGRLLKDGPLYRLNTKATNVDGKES
GAGGGACA: -0.0973
CGGTACCG: 0.246
CTCAAGCA: -0.344
ATTCGTTG: -0.0541
ACGGCTGA: 0.19
AAAGGCCG: 0.271
ATGCACTA: -0.0518
AAGAACTA: -0.153
GATAAACA: -0.00994
AGATGAAG: -0.219
ACCATTCC: -0.00679
ACGCAGCG: 0.203
ACAAATAC: 0.00314
CGGCACCG: 0.344
AATGCACG: 0.0635
AATTGAGT: -0.0273
TGTCGGAA: 0.0883
ACCGGCGT: 0.255
CGCCAGGA: 0.121
GGTGCTTA: -0.00122
CGCAGGCG: 0.218
ATGTCCAG: 0.00508
CAGAGATG: -0.131
GACAACGC: 0.112

Sample 4
Target: UBE2T UBC core domain (UniProt Q9NPD8)
Sequence of UniProt Q9NPD8 (whole entry, looked up): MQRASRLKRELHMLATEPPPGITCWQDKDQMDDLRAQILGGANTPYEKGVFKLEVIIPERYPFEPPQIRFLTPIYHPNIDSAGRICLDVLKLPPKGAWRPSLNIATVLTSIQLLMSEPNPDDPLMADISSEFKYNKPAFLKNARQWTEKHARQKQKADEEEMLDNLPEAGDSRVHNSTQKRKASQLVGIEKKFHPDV
Method: yeast two-hybrid
Matrix: yeast
Setting: mostly zero background
Baseline: not given
Direction: higher = stronger interaction
Measurement: lacZ reporter activity
B1: RNF17 RING domain (UniProt Q9BXT8); chain SQPWGAAEIQCTRCGRRVSRSSGHHCELQCGHAFCELCLLMTEECTTIICPDCEVATAVNTRQR
B2: RNF130 RING domain (UniProt Q86XS8); chain DKETDPDFDHCAVCIESYKQNDVVRILPCKHVFHKSCVDPWLSEHCTCPMCKLNILKALGIV
B3: MARCHF2 RING domain (UniProt Q9P0N8); chain RLLSTVIRALDTPSDGPFCRICHEGANGECLLSPCGCTGTLGAVHKSCLEKWLSSSNTSYCELCHTEFAVEKRPRPLTEWL
B4: RNF32 RING domain (UniProt Q9H0A6); chain VQALRRETHECSICLAPLSAAGGQRVGAGRRSREMALLSCSHVFHHACLLALEEFSVGDRPPFHACPLCRSCYQKKILEC
B5: TRIM28 RING domain (UniProt Q13263); chain GAEALELLEHCGVCRERLRPEREPRLLPCLHSACSACLGPAAPAAANSSGDGGAAGDGTVVDCPVCKQQCFSKDIVE
B6: ARIH1 RING domain (UniProt Q9Y4X5); chain NTRSSAQDMPCQICYLNYPNSYFTGLECGHKFCMQCWSEYLTTKIMEEGMGQTISCPAHGCDILVDDNTVM
B7: TRIM74 RING domain (UniProt Q86UV6); chain SLLELEDWLQCPICLEVFKESLMLQCGHSYCKGCLVSLSYHLDTKVRCPMCWQVVDGSSSLP
B1 (RNF17 RING domain): 0
FLSKVEETFQCICCQELVFRPITTVCQHNVCKDCLDRSFRAQVFSCPACRYDLGRSYAMQ (UHRF1 RING domain (UniProt Q96T88)): 0
EIKDYKARLTCPCCNMRKKDAVLTKCFHVFCFECVKTRYDTRQRKCPKCNAAFGANDFHR (RNF20 RING domain (UniProt Q5VTR2)): 0
GSEEEEIPFRCFICRQAFQNPVVTKCRHYFCESCALEHFRATPRCYICDQPTGGIFNPA (RNF113B RING domain (UniProt Q8IZP6)): 0
B2 (RNF130 RING domain): 0
B3 (MARCHF2 RING domain): 0
PLRRLQEEKLCKICMDRHIAVVFIPCGHLVTCKQCAEAVDRCPMCSAVIDFKQRVF (BIRC8 RING domain (UniProt Q96P09)): 0
B4 (RNF32 RING domain): 0
B5 (TRIM28 RING domain): 0
KITELNPHLMCALCGGYFIDATTIVECLHSFCKTCIVRYLETNKYCPMCDVQVHKTRPLL (PCGF2 RING domain (UniProt P35227)): 7210
B6 (ARIH1 RING domain): 0
B7 (TRIM74 RING domain): 0

Sample 5
Target: CCND3, cyclin fold, Cln2 fusion (human)
Method: yeast growth competition, sequencing
Matrix: yeast
Setting: weak parent motif
Baseline: not given
Direction: higher = stronger binding
Measurement: normalised enrichment score
Starting sequence: CDT1 docking peptide (human); PPARRRLRLSVDE; partner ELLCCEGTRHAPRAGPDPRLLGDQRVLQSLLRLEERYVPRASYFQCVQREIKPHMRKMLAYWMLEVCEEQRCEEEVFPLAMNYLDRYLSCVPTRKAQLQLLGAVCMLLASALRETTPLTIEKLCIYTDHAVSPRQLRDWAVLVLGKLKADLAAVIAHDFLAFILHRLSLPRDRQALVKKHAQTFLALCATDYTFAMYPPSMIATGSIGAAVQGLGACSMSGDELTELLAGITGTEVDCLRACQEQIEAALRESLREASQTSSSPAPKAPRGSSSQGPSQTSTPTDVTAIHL
R8A: 0.0764
R5K L9F: -0.332
R6A: 0.161
D12A: 0.277
R4A: 0.121
R5A: 0.0341
V11A: 0.124

Sample 6
Target: Centromere-binding protein 1, full length, His-tagged (CBF1, Saccharomyces cerevisiae, UniProt P17106, residues 1-351)
Sequence of UniProt P17106 (whole entry, looked up): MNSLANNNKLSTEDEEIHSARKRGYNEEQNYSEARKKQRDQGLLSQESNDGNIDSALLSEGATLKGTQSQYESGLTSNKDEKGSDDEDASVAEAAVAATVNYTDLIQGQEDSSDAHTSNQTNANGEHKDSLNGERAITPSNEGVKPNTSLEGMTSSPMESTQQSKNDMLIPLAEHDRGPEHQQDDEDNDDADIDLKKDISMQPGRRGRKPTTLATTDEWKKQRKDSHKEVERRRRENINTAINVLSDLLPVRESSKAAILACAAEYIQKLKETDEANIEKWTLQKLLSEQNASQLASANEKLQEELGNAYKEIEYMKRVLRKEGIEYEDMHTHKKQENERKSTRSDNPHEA
Method: competition protein-binding microarray
Molecule type: double-stranded DNA, one strand shown
Matrix: in vitro
Concentration: 2 µM
Setting: whole 60-bp probe, lowest competitor level
With: Pho4 competitor, 0.05 µM
Direction: higher = stronger binding
Measurement: fluorescence intensity
All sequences stand within: … GTCTTGATTCGCTTGACGCTGCTG
CTTTCCCGATCTTTTCACGTGTTCTTAGCACATTTG: 1240 a.u.
AAAGCGGTAATTTGACGCGTGGGTGCAGATATCTAT: 71.5 a.u.
CGATCAAGCGACCTACACGTGCTTTCAAGGCGCATT: 1190 a.u.
TCAAAAACGGACATTACTTGCCAGACGCGAATGATA: 68.4 a.u.
CTTATCCGAAGTTGAAATGTGACGGCTGCAATGGAT: 74.3 a.u.
TACGAAAAACAGAGAAACGTGTCGGTAGCATCCGAT: 98.6 a.u.
TTTTCTTTCGATTAGCACGCACACACATCACATAGA: 98.2 a.u.
CTTTCCCGATCTTGAGCTGTGGGTGTAGCACATTTG: 58.9 a.u.
TGCCTTACTCGGTATCACATGGAAAAGACCCCCGGC: 226 a.u.
AAATTACTAAGTTGCGCCGTGGGTGACGCCGTATGA: 66.1 a.u.
TTATCTCAATGGGTTTACGTGGGTATAGATTACGCT: 86.9 a.u.
AAATTACTAAGTTGTGACGTGGGTGACGCCGTATGA: 76.6 a.u.
CGTCCTAGCGATTGAACGGTGGGTGCCATGAGGAAG: 69.6 a.u.
TGAAGCTATTACTGGCACGCATCCATATCAGCTTAG: 73.2 a.u.
ATAACAAGAGACTGTCATGAAATTAATGTCTTACAA: 101 a.u.
AAAGCGGTAATTTGTTGTGTGGGTGCAGATATCTAT: 82 a.u.

Excerpt of the above (sample 6):
CTTTCCCGATCTTGAGCTGTGGGTGTAGCACATTTG: 58.9 a.u.
TGCCTTACTCGGTATCACATGGAAAAGACCCCCGGC: 226 a.u.
AAATTACTAAGTTGCGCCGTGGGTGACGCCGTATGA: 66.1 a.u.
TTATCTCAATGGGTTTACGTGGGTATAGATTACGCT: 86.9 a.u.
